Experimental data from different studies.
Protocols differ between the studies behind these lines. Numbers after ± are the reported error.
APP: Amyloid-beta precursor protein (APP, Homo sapiens, UniProt P05067)
Chain of UniProt P05067 (whole entry, looked up): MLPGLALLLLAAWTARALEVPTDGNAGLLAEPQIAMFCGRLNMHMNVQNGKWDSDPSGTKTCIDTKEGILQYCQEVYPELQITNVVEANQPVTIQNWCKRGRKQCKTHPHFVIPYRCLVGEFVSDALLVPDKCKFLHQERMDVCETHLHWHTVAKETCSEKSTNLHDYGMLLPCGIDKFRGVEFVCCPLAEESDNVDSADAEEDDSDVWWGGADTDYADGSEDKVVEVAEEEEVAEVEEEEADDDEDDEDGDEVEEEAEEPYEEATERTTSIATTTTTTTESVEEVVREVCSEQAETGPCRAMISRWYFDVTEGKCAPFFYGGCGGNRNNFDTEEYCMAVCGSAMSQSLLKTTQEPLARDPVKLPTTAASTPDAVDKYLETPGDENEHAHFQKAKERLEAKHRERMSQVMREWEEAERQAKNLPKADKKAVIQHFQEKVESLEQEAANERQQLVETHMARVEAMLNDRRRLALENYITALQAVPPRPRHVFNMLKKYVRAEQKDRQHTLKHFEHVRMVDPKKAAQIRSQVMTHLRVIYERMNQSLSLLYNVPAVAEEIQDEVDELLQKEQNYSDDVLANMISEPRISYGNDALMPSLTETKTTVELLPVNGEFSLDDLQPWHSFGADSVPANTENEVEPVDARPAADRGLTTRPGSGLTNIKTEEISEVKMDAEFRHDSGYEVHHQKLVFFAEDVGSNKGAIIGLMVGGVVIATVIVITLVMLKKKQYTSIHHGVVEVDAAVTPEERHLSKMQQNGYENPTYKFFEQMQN
APP Aβ40 fibrils: Amyloid-beta precursor protein, Aβ40 fibrils (APP, Homo sapiens, UniProt P05067)
APP Aβ42 aggregates: Amyloid-beta precursor protein, Aβ42 aggregates (APP, Homo sapiens, UniProt P05067)

Compound | target | test | test system | conditions | scale | endpoint | result
COc1cc(C=CC(=O)CC(=O)C=Cc2ccc(OCC(=O)NCCOCCOCCOCC(F)(F)F)c(OC)c2)ccc1O | APP | Aβ aggregation, SDS-PAGE western blot, measured: Aβ1-42 75-200 kDa band | – | 30 µM, 24 h, 37 °C, added: Aβ1-42 10 µM | baseline: DMSO | band density | 345 ± 75%
CC[C@H](C)[C@H](NC(=O)[C@@H](NC(=O)[C@@H](N)C(C)C)C(C)C)C(=O)N[C@@H](C)C(N)=O | APP | amyloid aggregation, inhibitor, fluorescence | – | 10 µM, 24 h | – | inhibition | 52.1%
CC(C)C[C@@H]1NC(=O)CN(C)C(=O)CCCC(=O)NCCCC[C@@H](C(=O)N[C@@H](CCCNC(=N)N)C(N)=O)NC(=O)[C@H](Cc2ccccc2)NC(=O)[C@H](Cc2ccccc2)NC(=O)[C@H](C(C)C)NC1=O | APP Aβ40 fibrils | ThT fluorescence | – | 2-fold molar excess, pH 7.4, 37 °C, added: preformed Aβ1-40 fibrils 40 µM | – | amyloid fibril disruption | 70.3%
COCCOCCOCCOC(=O)/C(C#N)=C/c1ccc2cc(N3CCOCC3)ccc2c1 | APP Aβ42 aggregates | fluorescence | – | free probe, 5% DMSO in water | – | emission maximum | 530 nm
CN(C)c1ccc(C=C(C#N)C(=O)OCC(O)CO)cc1 (stereo not shown) | APP Aβ42 aggregates | binding, fluorescence spectroscopy | PBS | 4 µM, added: pre-aggregated Aβ(1-42) 5 µM | – | excitation maximum | 434 nm
[11CH3]Nc1ccc(-c2nc3ccc(O)cc3o2)cn1 | APP | binding, PET | Alzheimer's disease patients, white matter | unit not given | baseline: control subjects | effect size of DVR | 3.35
CC[C@H](C)[C@H](NC(=O)[C@H](Cc1ccccc1)NC(=O)[C@@H](N)C(C)C)C(=O)N[C@@H](C)C(N)=O | APP | amyloid aggregation, inhibitor, fluorescence | – | 2 µM, 24 h | – | inhibition | 100%
COCCOCCOCCOC(=O)C(C#N)=Cc1ccc(C=Cc2ccc(N(C)C)cc2)cc1 | APP Aβ42 aggregates | binding, fluorescence spectroscopy | PBS | 4 µM, added: pre-aggregated Aβ(1-42) 5 µM | – | emission maximum | 638 nm
CC[C@H](C)[C@H](NC(=O)[C@@H]1CCCN1C(=O)[C@@H](N)C(C)C)C(=O)N[C@@H](C)C(N)=O | APP | amyloid aggregation, inhibitor, fluorescence | – | 10 µM, 24 h | – | inhibition | 18.5%
[123I]c1ccc2nc(-c3ccc(-n4ccnn4)nc3)cn2c1 | Amyloid-beta precursor protein, amyloid-beta (APP, Homo sapiens, UniProt P05067) | SPECT | healthy controls, posterior cingulate | 120 to 210 min | baseline: cerebellum | SUVR | 0.84 ± 0.04
CC(C)C[C@@H]1NC(=O)CN(C)C(=O)CCCCC(=O)NCCCC[C@@H](C(=O)N[C@@H](CCCNC(=N)N)C(N)=O)NC(=O)[C@H](Cc2ccccc2)NC(=O)[C@H](Cc2ccccc2)NC(=O)c2ccccc2NC1=O | APP Aβ40 fibrils | ThT fluorescence | – | 2-fold molar excess, pH 7.4, 37 °C, added: preformed Aβ1-40 fibrils 40 µM | – | amyloid fibril disruption | 60%
CCCCN(CCCC)c1ccc(C=C(C#N)C(=O)OCCOCCOCCOC)cc1 | APP Aβ42 aggregates | binding, fluorescence spectroscopy | PBS | 4 µM, added: pre-aggregated Aβ(1-42) 5 µM | – | excitation maximum | 440 nm
COCCOCCOCCOC(=O)/C(C#N)=C/c1ccc2cc(NCCN3CCOCC3)ccc2c1 | APP Aβ42 aggregates | fluorescence | – | free probe, 5% DMSO in water | – | excitation maximum | 430 nm

Repeated from above:
Compound | target | test | test system | conditions | scale | endpoint | result
CC[C@H](C)[C@H](NC(=O)[C@@H](NC(=O)[C@@H](N)C(C)C)C(C)C)C(=O)N[C@@H](C)C(N)=O | APP | amyloid aggregation, inhibitor, fluorescence | – | 10 µM, 24 h | – | inhibition | 52.1%
CC[C@H](C)[C@H](NC(=O)[C@@H]1CCCN1C(=O)[C@@H](N)C(C)C)C(=O)N[C@@H](C)C(N)=O | APP | amyloid aggregation, inhibitor, fluorescence | – | 10 µM, 24 h | – | inhibition | 18.5%
